Measured values pooled from the literature.
Each line is one published result; not all experiments were run side by side. Several values in a cell are separate wells, animals, samples, runs or records. ± gives the spread as reported. Values after ≈ are worked out from the molar mass of the structure shown.

| SMILES | assay | test system | conditions | how to read | measurement | value |
| --- | --- | --- | --- | --- | --- | --- |
| CN(C)c1ccc(-c2oc3cc4ccccc4cc3c(=O)c2O)cc1 |  | DMSO | with: visible light |  | CO release quantum yield | 0.006 |
| CC(=O)N([O-])CCCCCNC(=O)CCC(=O)N([O-])CCCCCNC(=O)CCC(=O)N([O-])CCCCCN.[89Zr+4] |  | mouse, kidney | 4 h |  | tracer uptake | 6.3 %ID/g |
| CCCCC/C=C\CCCO[Si](CCCCN1CCCCC1)(OCCC/C=C\CCCCC)OCCC/C=C\CCCCC |  |  | pH 5.5, formulated |  | zeta potential | 1.35 mV |
| CSCC[C@H](N)C(=O)N[C@@H](CO)C(=O)N[C@H](C(=O)N[C@@H](C)C(=O)NCC(=O)N[C@@H](CC(C)C)C(=O)N[C@@H](CCCCN)C(=O)N[C@@H](CCCCN)C(=O)N[C@@H](CCC(N)=O)C(=O)N[C@@H](Cc1c[nH]c2ccccc12)C(=O)N[C@@H](Cc1c[nH]cn1)C(=O)N[C@@H](CCCCN)C(=O)N[C@@H](C)C(=O)N[C@H](C(=O)N[C@@H](CCC(N)=O)C(=O)N[C@@H](CCCCN)C(=O)N[C@H](C(=O)N[C@@H](CO)C(=O)N[C@@H](CCC(=O)O)C(=O)N[C@@H](CCCCN)C(=O)N[C@H](C(=O)NCC(=O)NCC(=O)N[C@@H](C)C(N)=O)C(C)C)C(C)C)[C@@H](C)O)C(C)C | circular dichroism | aqueous TFE | 50 µM, pH 7.4, 20 °C |  | m value | 2.6 ± 0.3 kcal/mol/M |
| C/C(N)=N/C(=N\S(=O)(=O)c1ccc(C(F)(F)F)cc1)N1C[C@H](c2ccccc2)C(c2ccc(Cl)cc2)=N1 |  | C57BL/6 mouse, male, fat | intravenous, 10 mg/kg | relative to: fat over plasma | tissue/plasma ratio | 6 |
| C=CC(=O)Nc1cc(Nc2nccc(-c3c[nH]c4ccccc34)n2)c(OC)cc1N(C)CCN(C)C | storage stability | human dried blood spots | 24 h, on ice, LLOQ level |  | recovery | 79.4% |
| CCC(CC)n1c(Cc2cccs2)nc2cc(C(=O)N[C@@H](CC(=O)O)c3ccccc3)ccc21 |  | male Sprague-Dawley rat, plasma | intravenous, 1 mg/kg |  | AUC(0-t) | 550 ng·h/mL |
| Nc1nc2cnc(C(=O)N3CCOC[C@@H]3c3ccc(C(F)(F)F)cc3)cc2c2c1COC2 |  | dog, plasma |  |  | fraction unbound | 0.083 |
| Cc1ccc(CN2C(=O)/C(=N\c3ccc(Cl)cc3Br)c3ccccc32)cc1 |  | mouse, blood | 100 mg/kg |  | MCV | 44.7 ± 1.4 fL |
| CCCCN1C(=O)c2cccc3c(NCCCCN4CCOCC4)ccc(c23)C1=O |  | water | pH 6.0 |  | fluorescence quantum yield | 0.34 |
| O=C(Nc1cnccc1-c1ccc([18F])cc1)c1ccnc(NC(=O)C2CC2)c1 | ex vivo gamma counting | GSK-3β transgenic mice, early-stage, cecum | intravenous, 120 min |  | mean SUV | 8.49 |
| C=C(NC(=O)c1csc(-c2nc3c(cc2O)-c2nc(cs2)C(=O)NC(C(C)O)C(=O)NC(=C(C)OC)c2nc(cs2)C(=O)NC2c4nc(cs4)C(=O)NC(COC(=O)c4c5c6c(cccc6n4O)COC(=O)C(OC4CC(C)(O)C(N(C)C)C(C)O4)C2OC5)c2nc-3cs2)n1)C(N)=O (stereo not shown) |  | ICR mice, Streptococcus pneumoniae ATCC 49169 infected, immunocompromised, blood | intravenous, 4 mg/kg/day three times daily |  | Cmax | 110 ng/mL |
| CC(C)(O)c1ncc([S@](N)(=O)=NC(=O)Nc2c3c(cc4c2CCC4)CCC3)s1 | measured: blood, lymphatic system disorders | healthy human | oral, 3 mg, CS formulation |  | subjects with TEAEs | 33% |
| FC(F)(F)C1(c2ccc(CN3CCN(C(c4ccccc4)c4ccc(Cl)cc4)CC3)cc2)CCC1 (stereo not shown) |  | PBS | pH 7.4, 25 °C, 2% DMSO |  | solubility | 8 µM (≈ 3.99 µg/mL) |
| C=C[C@]1(C)C[C@@H](OC(=O)CSc2ccc(NC(=O)c3ccco3)cc2)[C@]2(C)[C@H](C)CC[C@]3(CCC(=O)[C@H]32)[C@@H](C)[C@@H]1O |  | chicken, Mycoplasmoides gallisepticum infected, plasma | intramuscular, 80 mg/kg |  | Vd/F | 8.58 L/kg |
| CNCc1ccc(-c2cc(=O)c3ccc4[nH]c(C(F)(F)F)nc4c3o2)cc1 |  | ICR mice | 5 mg/kg |  | oral bioavailability | 6.99% |
| COc1cccc(OC)c1-c1cc(C(=O)NC2(C(=O)O)C3CC4CC(C3)CC2C4)nn1-c1ccc(C(=O)N(C)CCCN(C)CCCN(C)C(=O)[C@H](CCCCNC(=O)[C@H](CC(C)C)NC(=O)C2OC2C(=O)O)NC(=O)CN2CCN(CC(=O)[O-])CCN(CC(=O)[O-])CCN(CC(=O)[O-])CC2)cc1C(C)C.[177Lu+3] (mixture of isomers) |  | mouse HT-29 xenograft | 24 h, biodistribution | relative to: tumour over large intestine | tumour-to-large intestine ratio | 17.9 |

| SMILES | assay | test system | conditions | how to read | measurement | value |
| --- | --- | --- | --- | --- | --- | --- |
| O=C1NCC(COc2cccc3c(NCc4ccsc4)nc(Cl)nc23)O1 (stereo not shown) |  | C57BL/6 mouse, heart | oral, 30 mg/kg, 0.5 h | relative to: heart over plasma | tissue/plasma ratio | < 0.196 |
| CCCCCCCCCCCCOC(=O)c1ccc(O)cc1 |  | empty Transwells without cells | 5 µM, 60 min, apical to basolateral |  | mass balance | 85% |
| CCCCCCCCCCO[Si](CCCCN(C)C)(OCCCCCCCCCC)OCCCCCCCCCC |  |  | pH 5.5, formulated |  | zeta potential | 3.4 mV |
| Cc1cccc(Cn2ncc3c4cc(F)c(CN(C)C)cc4n(C)c3c2=O)n1 |  | Sprague-Dawley rat, plasma | intravenous, 5 mg/kg |  | AUC(0-t) | 1930 ng·h/mL |
| O=C(c1ccccc1)N1C(c2ccc(OCC3CCN(CCCF)C3)cc2)c2ccc(O)cc2CC12CC2 (stereo not shown) |  | C57BL/6J mice, plasma | oral, 25 mg/kg |  | AUC extrapolated | 1.41% |
| CCC(C(=O)Nc1ccc(C(N)=O)c(F)c1)n1cc(OC)c(-c2cc(Cl)ccc2-n2cc(C(F)(F)F)nn2)cc1=O (stereo not shown) |  | male humans | oral, 50 mg, fasted |  | subjects with any adverse event | 7.1% |
| COc1cccc(OC)c1-c1cc(C(=O)NC2(C(=O)O)C3CC4CC(C3)CC2C4)nn1-c1ccc(C(=O)N(C)CCCN(C)C(=O)[C@H](CCCCNC(=O)[C@H](CC(C)C)NC(=O)C2OC2C(=O)O)NC(=O)CN2CCN(CC(=O)[O-])CCN(CC(=O)[O-])CCN(CC(=O)[O-])CC2)cc1C(C)C.[177Lu+3] (mixture of isomers) |  | mouse, HT-29 xenograft | 168 h post injection, biodistribution | relative to: tumour over lung uptake | tumour-to-lung ratio | 3.57 |
| Cc1nn(-c2nc3c(F)cc(F)cc3s2)c(O)c1C(c1ccc(C(F)(F)F)cc1)c1c(C)nn(-c2nc3c(F)cc(F)cc3s2)c1O |  | ICR mouse, plasma | intravenous, 5 mg/kg |  | MRT(0-last) | 5.41 h and 8.78 h and 4.6 h |
| COc1cccc(OC)c1-c1cc(C(=O)NC2(C(=O)O)C3CC4CC(C3)CC2C4)nn1-c1ccc(C(=O)N(C)CCOCCOCCN(C)C(=O)[C@H](CCCCNC(=O)[C@H](CC(C)C)NC(=O)C2OC2C(=O)O)NC(=O)CN2CCN(CC(=O)[O-])CCN(CC(=O)[O-])CCN(CC(=O)[O-])CC2)cc1C(C)C.[177Lu+3] (mixture of isomers) |  | mouse HT-29 xenograft | 72 h, biodistribution | relative to: tumour over large intestine | tumour-to-large intestine ratio | 21.4 |
| CCCC[C@H](NC(=O)CNC(=O)CNC(=O)[C@H](CCCCNC(=O)[C@H](CC(=O)O)NC(=O)C(C)c1ccc(CC(C)C)cc1)NC(=O)CN1CCN(CC(=O)O)CCN(CC(=O)O)CCN(CC(=O)O)CC1)C(=O)N[C@H]1CC(=O)NCCCC[C@@H](C(N)=O)NC(=O)[C@H](Cc2c[nH]c3ccccc23)NC(=O)[C@H](CCCNC(=N)N)NC(=O)[C@@H](Cc2ccccc2)NC(=O)[C@H](Cc2c[nH]cn2)NC1=O (stereo partly shown) [lutetium-177 labelled] |  | C57 mice, tumour | intravenous, 0.037 MBq, 0.5 h | relative to: kidney | tumour-to-tissue ratio | 1.38 |
| COc1cccc(OC)c1-c1cc(C(=O)NC2(C(=O)O)C3CC4CC(C3)CC2C4)nn1-c1ccc(C(=O)NCCNC(=O)[C@H](CCCCNC(=O)[C@H](CC(C)C)NC(=O)C2OC2C(=O)O)NC(=O)CN2CCN(CC(=O)[O-])CCN(CC(=O)[O-])CCN(CC(=O)[O-])CC2)cc1C(C)C.[177Lu+3] (mixture of isomers) |  | mouse, HT-29 xenograft | 24 h post injection, biodistribution | relative to: tumour over lung uptake | tumour-to-lung ratio | 3.58 |
| O=C(Nc1cnccc1-c1ccc([18F])nc1)c1ccnc(NC(=O)C2CC2)c1 |  | FVB/NJ mice (both sexes), lung | intravenous, dose not given, 120 min, with: tariquidar 15 mg/kg i.v. pre-dose |  | SUV | 0.204 |
| CC(=O)N[C@@H](C)C(=O)N[C@@H](CCC(=O)O)C(=O)N[C@H]1CS/C=C\CCC[C@@H](C(=O)N[C@@H](C)C(=O)N[C@@H](Cc2ccc(O)cc2)C(N)=O)NC(=O)[C@H](C)NC(=O)[C@H](CCCNC(=N)N)NC(=O)[C@H](C)NC1=O | circular dichroism | 10 mM phosphate buffer | pH 7.4, 20 °C |  | helicity | 46% |
| C=CC[C@@H]1/C=C(\C)C[C@H](C)C[C@H](OC)[C@H]2O[C@@](O)(C(=O)C(=O)N3CCCC[C@H]3C(=O)O[C@H](/C(C)=C/[C@@H]3CC[C@@H](O)[C@H](OC)C3)[C@H](C)[C@@H](O)CC1=O)[C@H](C)C[C@@H]2OC |  | kidney transplant recipients, whole blood | oral, dose not given, late phase, limited sampling |  | dose-normalized AUC(0-12h) | 146 ng·h/mL |
| C=CC(=O)Nc1cc(Nc2nccc(-c3cn(C)c4ccccc34)n2)c(OC)cc1N(C)CCNC |  | human plasma | 5 h, storage stability, medium QC sample |  | recovery | 94.1% |
| CC[C@H](C)[C@@H]1NC(=O)[C@H](Cc2ccc(O)cc2)NC(=O)CCCSC[C@@H](C(=O)N(CC(=O)N[C@@H](CC(C)C)C(=O)NCC(N)=O)Cc2ccc(F)cc2)NC(=O)[C@H](CC(N)=O)NC(=O)[C@H](CCC(N)=O)NC1=O |  | human | intravenous, 3-20 µg |  | clearance | 2.2 L/min |
| CN([O-])C(=O)CN1CCN(CC(=O)N(C)[O-])CCN(Cc2ccccn2)CC1.[89Zr+4] |  | mouse, kidney | intravenous, 4 h |  | tracer uptake | 1.17 %ID/g |

Repeated from above:
| SMILES | assay | test system | conditions | how to read | measurement | value |
| --- | --- | --- | --- | --- | --- | --- |
| C=CC(=O)Nc1cc(Nc2nccc(-c3cn(C)c4ccccc34)n2)c(OC)cc1N(C)CCNC |  | human plasma | 5 h, storage stability, medium QC sample |  | recovery | 94.1% |
| CC[C@H](C)[C@@H]1NC(=O)[C@H](Cc2ccc(O)cc2)NC(=O)CCCSC[C@@H](C(=O)N(CC(=O)N[C@@H](CC(C)C)C(=O)NCC(N)=O)Cc2ccc(F)cc2)NC(=O)[C@H](CC(N)=O)NC(=O)[C@H](CCC(N)=O)NC1=O |  | human | intravenous, 3-20 µg |  | clearance | 2.2 L/min |
